Results pooled from the literature.
Lines come from different studies, so protocols differ. Numbers after ± are the reported error.

`CC12CC(c3ccc(S(C)(=O)=O)cc3)C3=C4CCC(=O)C=C4CCC3C1CCC2(O)C(F)(F)C(F)(F)F` (stereo not shown) has a Vd/F of 691 L (human, plasma; oral, 5 mg, single dose, fasted).
With `NC(=O)c1ccc(C(=O)NOCc2ccc(Sc3cccc(Cl)c3)c(C(F)(F)F)c2)cc1` the Tmax was 4.8 min (male ICR mouse, plasma; intravenous, 10 mg/kg).
The bioavailability of `Cc1ccc(OCC(=O)N(Cc2cccs2)c2ccn[nH]2)cc1` is reported as 0.53% (female Sprague-Dawley rat, plasma; oral, 100 mg/kg, single dose).
`Cc1ccc(-c2ccc(-c3cc4sccc4o3)cn2)nc1` has a fluorescence lifetime of 0.86 ns (TCSPC; toluene).
With `c1ccc(CN2CCOCCOCCN(CCCCCCCCCCCCCCN3CCOCCOCCN(CCCCCCCCCCCCCCN4CCOCCOCCN(Cc5ccccc5)CCOCCOCC4)CCOCCOCC3)CCOCCOCC2)cc1` the aggregate size was 160 nm (dynamic light scattering; LB Miller medium; 3.5 µM).
`[2H]C([2H])([2H])NC(=O)c1ccc(N2C(=S)N(c3ccc(C#N)c(C(F)(F)F)c3)C(=O)C2(C)C)cc1F` has a CL/F of 247 ± 54 mL/h (human, plasma; oral, 80 mg, fasted, single dose).
`CN1CCC[C@]1(C)/C=C/S(=O)(=O)NC(=O)Nc1c2c(cc3c1CCC3)CCC2` gave an AUC(0-t) of 92300 ng·h/mL (human, plasma; oral, 100 mg, single dose, healthy volunteers).
With `CC(=O)N[C@H](CSSC[C@H](N)C(=O)O)C(=O)N[C@H](C)C(=O)N[C@H](CCCNC(=N)N)C(=O)N[C@H](CCCNC(=N)N)C(=O)N[C@H](CCCNC(=N)N)C(=O)N[C@H](C)C(=O)N[C@H](CCCNC(=N)N)C(N)=O` the Cmax was 273 ng/mL (male human, plasma; intravenous, 5 mg, single dose, healthy volunteers).
`CCCC[C@H](NC(C)=O)C(=O)N[C@H]1CC(=O)NCCCC[C@@H](C(=O)N[C@@H](C(=O)N2CCC[C@@H]2C(N)=O)C(C)C)NC(=O)[C@H](Cc2c[nH]c3ccccc23)NC(=O)[C@H](CCCN=C(N)N)NC(=O)[C@@H](Cc2ccc3ccccc3c2)NC(=O)[C@@H]2CCCN2C1=O` gave a half-life of 1.9 ± 0.2 h (Beagle dog, both sexes, plasma; subcutaneous, once daily, 0.75 mg/kg, day 5).
`CC(C)(F)CC(NC(c1ccc(-c2ccc(S(C)(=O)=O)cc2)cc1)C(F)(F)F)C(=O)NCC#CBr` (stereo not shown) — result for “cysteine adduct formation”: 55% (LC-MS UV trace; aqueous buffer; concentration not given, 23 h, pH 7.5, 37 °C, with: cysteine 10 mM).
Under “formation from FLZ”, `COc1ccc(OC)c(/C(=C\c2ccc(O)c(O)c2)C(=O)NCCc2ccc(O)cc2)c1` is recorded as “not detected” (mouse liver cytosol; concentration not given, 30 min, with: FLZ).
The spleen uptake of `COc1cc2c(cc1OC)CN(CCCCn1ccc3cc(OCC[18F])ccc31)C2` is reported as 8.69 ± 0.95 %ID/g (male ICR mice; intravenous, 30 min post-injection).
For `CC[C@H](C)[C@@H]1NC(=O)[C@@](C)(NC(=O)[C@H](CCCNC(=N)N)NC(=O)[C@H](CC(C)C)NC(=O)[C@]2(C)CCCC=CCCC[C@](C)(NC(C)=O)C(=O)N[C@@H](CC(C)C)C(=O)N[C@@H](CCC(N)=O)C(=O)N2)CCCC=CCCC[C@@](C)(C(=O)N[C@@H](CC(C)C)C(=O)N[C@@H](Cc2ccc3ccccc3c2)C(=O)NCCC(=O)NCCC(N)=O)NC(=O)[C@H](CCCNC(=N)N)NC(=O)[C@H](CCC(N)=O)NC1=O`, the terminal half-life was 9.81 h (BALB/c mice; intraperitoneal, 30 mg/kg).
For `CCCC[C@@H]1NC(=O)[C@@H](NC(=O)[C@H](CCC(=O)O)NC(=O)CNC(=O)CN2CCN(CC(=O)O)CCN(CC(=O)O)CCN(CC(=O)O)CC2)CCCCNC(=O)C[C@@H](C(N)=O)NC(=O)[C@H](C(C)C)NC(=O)[C@@H]2CCCN2C(=O)[C@H](CCCNC(=N)N)NC(=O)CNC(=O)[C@H](Cc2c[nH]c3ccccc23)NC(=O)[C@H](CCCNC(=N)N)NC(=O)[C@@H](Cc2ccccc2)NC(=O)[C@H](Cc2c[nH]cn2)NC(=O)[C@H](CCC(=O)O)NC1=O` [gallium-67 labelled], the urine excretion was 85.8 ± 3.76% (normal C57 mice; intravenous, 0.037 MBq, 2 h).
`CC(C)c1cnc(-c2cc(Cl)ccc2F)cc1Nc1ccncc1C(=O)NC(CO)CO`: “patients with AST increase” 0% (patients, phase I monotherapy; oral, dose not given, grade 5).
`CCOc1ccc2c(c1)C(C)=CC(C)(C)N2c1cc(OCC)cc2c1NC(C)(C)C=C2C` gave an effective dose of no less than 286 mg/kg bw/day (decreased white adipose tissue mass; male BALB/c mice; oral, diet, 90 days).
With `O=C(CCc1ccc(CNC(C(=O)OC2CCCC2)C2CCCCC2)cn1)NO` (stereo not shown) the Cmax was 42.8 ng/mL (human, plasma; oral, 10 mg, single dose, patients).
With `CC(=O)N([O-])CCCCCNC(=O)CCC(=O)N([O-])CCCCCNC(=O)CCC(=O)N([O-])CCCCCN.[89Zr+4]` the intact complex was 63.5 ± 1.3% (radio-iTLC; aqueous buffer; 1 h, pH 5.0, 37 °C, EDTA challenge, with: 100-fold excess EDTA).
For `C[C@]12C[C@H](c3ccc(C4CC4)cc3)C3=C4CCC(=O)C=C4CC[C@H]3[C@@H]1CC[C@@]2(O)C(F)(F)C(F)(F)F`, “maximal oral bioavailability” read 61% (rat liver microsomes; 100 % absorption assumed).
`N#Cc1cnc2cc(OCC3CCNCC3)c(F)cc2c1Nc1cc(F)c(OCc2cccc(Cl)n2)cc1Cl` gave a bioavailability of 12% (male Sprague-Dawley rat, plasma; oral, 100 mg/kg).
`OCc1cn(Cc2ccc(-c3noc(-c4ccc(OCC[18F])c(C(F)(F)F)c4)n3)cc2)nn1` has a tracer uptake of 4.3 %ID/g (rat, liver; intravenous, 30 min).
`CC(O)c1cc(Cl)ccc1Cn1c(=S)[nH]c(=O)c2[nH]ccc21` (stereo not shown) gave an exposure ratio of 9.2 (Sprague-Dawley rat, male, plasma; oral, 125 mg/kg/day; reference: rat over human 5 mg).
`CCCCC/C=C/C=C/C(=O)NCC(C)C` gave a relative error of -1.6% (processed rat plasma; 250 ng/mL, 4 h, 20 °C, autosampler stability medium QC; reference: nominal concentration).
For `CCCC[C@H](NC(=O)CNC(=O)CNC(=O)CN1CCN(CC(=O)O)CCN(CC(=O)O)CCN(CC(=O)O)CC1)C(=O)N[C@H]1CC(=O)NCCCC[C@@H](C(N)=O)NC(=O)[C@H](Cc2c[nH]c3ccccc23)NC(=O)[C@H](CCCNC(=N)N)NC(=O)[C@@H](Cc2ccccc2)NC(=O)[C@H](Cc2c[nH]cn2)NC1=O` [lead-203 labelled], the tissue uptake was 6.66 ± 1.26 %ID/g (C57 mouse, kidneys; intravenous, 0.056 MBq, 4 h).
For `Cn1c(=O)oc2ccc(-c3ccc(CC(C#N)NC(=O)C4CNCCCO4)c(F)c3)cc21` (stereo not shown), “subjects with TEAE” read 33.3% (measured: blood triglycerides increased; human; 15 mg single dose, fasted).
The serum ALT of `O=C(O)c1cc2cc(O)ccc2n1Cc1ccc(Cl)c(C(F)(F)F)c1` is reported as 205 U/L (male Wistar Hannover rat; oral, 500 mg/kg single dose).
Under “mean corpuscular volume”, `CCCC[C@H](NC(C)=O)C(=O)N[C@H]1CC(=O)NCCCC[C@@H](C(=O)N[C@@H](C(=O)N2CCC[C@@H]2C(N)=O)C(C)C)NC(=O)[C@H](Cc2c[nH]c3ccccc23)NC(=O)[C@H](CCCN=C(N)N)NC(=O)[C@@H](Cc2ccc3ccccc3c2)NC(=O)[C@@H]2CCCN2C1=O` is recorded as 69.9 fL (dog; dose not given, day 1, start of treatment).
For `COC(=O)c1ccc(-c2cn(Cc3cc(Cl)ccc3O[11CH3])nn2)cc1`, “distribution volume VT” read 0.594 mL/cm³ (PET, 2TCM; rhesus macaque, thalamus; dose not given).

Repeated from above:
For `CC[C@H](C)[C@@H]1NC(=O)[C@@](C)(NC(=O)[C@H](CCCNC(=N)N)NC(=O)[C@H](CC(C)C)NC(=O)[C@]2(C)CCCC=CCCC[C@](C)(NC(C)=O)C(=O)N[C@@H](CC(C)C)C(=O)N[C@@H](CCC(N)=O)C(=O)N2)CCCC=CCCC[C@@](C)(C(=O)N[C@@H](CC(C)C)C(=O)N[C@@H](Cc2ccc3ccccc3c2)C(=O)NCCC(=O)NCCC(N)=O)NC(=O)[C@H](CCCNC(=N)N)NC(=O)[C@H](CCC(N)=O)NC1=O`, the terminal half-life was 9.81 h (BALB/c mice; intraperitoneal, 30 mg/kg).
`CC(O)c1cc(Cl)ccc1Cn1c(=S)[nH]c(=O)c2[nH]ccc21` (stereo not shown) gave an exposure ratio of 9.2 (Sprague-Dawley rat, male, plasma; oral, 125 mg/kg/day; reference: rat over human 5 mg).
For `COC(=O)c1ccc(-c2cn(Cc3cc(Cl)ccc3O[11CH3])nn2)cc1`, “distribution volume VT” read 0.594 mL/cm³ (PET, 2TCM; rhesus macaque, thalamus; dose not given).
